Measurements collected from several papers.
Compare with care: the assays were run in different laboratories. Numbers after ± are the reported error.
DNA ligase: DNA ligase (Enterobacteria phage T4, UniProt P00970)
Dihydrolipoyl dehydrogenase: Dihydrolipoyl dehydrogenase (Mycobacterium tuberculosis, UniProt P9WHH9)
Genome polyprotein protease: Genome polyprotein, protease (Coxsackievirus B3, UniProt P03313)
rep main protease: Replicase polyprotein 1ab, main protease (rep, Human coronavirus HKU1, UniProt P0C6X2)
Replicase polyprotein 1ab main protease: Replicase polyprotein 1ab, main protease (Human coronavirus OC43, UniProt P0C6X6)

CCOCC1C(c2ccc(Cl)c(Cl)c2)CC2CCC1N2C (stereo not drawn)  IC50 (SLC6A3 (Homo sapiens, UniProt Q01959, S422A); transporter uptake, inhibitor, radiometric): 0.204 µM
CC1(C)OC2OC(C(CCO)NCCCNC(CCO)C3OC4OC(C)(C)OC4C3OCc3ccccc3)C(OCc3ccccc3)C2O1 (stereo not drawn)  IC50 (DNA ligase; enzyme activity, inhibitor, radiometric): 455 µM
CC1C(=NNC(=O)c2ccncc2)C(C)C(c2ccc(Br)cc2)OC1c1ccc(Br)cc1 (stereo not drawn)  IC50 (DNA gyrase subunit B, with GyrA (gyrB, Mycobacterium tuberculosis, UniProt P9WG45); ATPase activity, inhibitor): 5.76 µM
COC(=O)C1C(c2ccc(C)cc2)CC2CCC1N2CC#CC[18F] (stereo not drawn)  IC50 (SLC6A3 (Homo sapiens, UniProt Q01959); transporter uptake, inhibitor, radiometric): 0.0201 µM
COc1ccc2cc(CCC(=O)CC(Nc3ccc(C(=O)O)cc3)c3ccc(Cl)cc3)ccc2c1 (stereo not drawn)  IC50 (Isocitrate lyase (icl, Mycobacterium tuberculosis, UniProt P9WKK7); enzyme activity, inhibitor, absorbance): 110 µM
Cc1cnc(N)c(S(=O)(=O)N(C)CC(=O)Nc2ccn(C)c(=O)c2)c1  IC50 (Dihydrolipoyl dehydrogenase; enzyme activity, inhibitor; added: 50 nM enzyme): 0.165 µM
CCCCn1c(NCc2ccc(N3N=C(c4ccccc4)CC3c3ccccc3)cc2)nc2ccccc21 (stereo not drawn)  IC50 (Genome polyprotein protease; enzyme activity, inhibitor): 5.4 µM
C=CC(=O)NC(CC(=C)C)C(=O)N1CC(C(=O)NC(CCSC)C(=O)NC)C(c2cccc(C(F)(F)F)c2)C1 (stereo not drawn)  IC50 (rep main protease): > 100 µM
Cc1cccc(C)c1N1Cc2cnc(Nc3ccc(N4CCN(C)CC4)cc3)nc2N(C23CC4CC(CC(C4)C2)C3)C1=O  IC50 (SIK1 (Homo sapiens, UniProt P57059); inhibitor): 0.0097 µM
C=CC(=O)NC(CC(=C)C)C(=O)N1CC(C(=O)NC(Cc2ccccc2)C(=O)NC)C(c2cccc(C(F)(F)F)c2)C1 (stereo not drawn)  IC50 (rep main protease): 19.5 µM
CSCC[C@@H](C=O)NC(=O)[C@H](CC(C)C)NC(=O)[C@H](CC(C)C)NC(C)=O  IC50 (Replicase polyprotein 1ab main protease; enzyme activity, inhibitor): 0.56 µM
CC1(C)O[C@H]2OC(CNCCCCCCCCCCCCNCC3O[C@@H]4OC(C)(C)O[C@@H]4[C@H]3OCc3ccccc3)[C@H](OCc3ccccc3)[C@H]2O1 (stereo partly drawn)  IC50 (DNA ligase; enzyme activity, inhibitor, radiometric): 8 µM
COc1ccc(NC(=O)CN(C)S(=O)(=O)c2cc(C)cnc2N)cc1Cl  IC50 (Dihydrolipoyl dehydrogenase; enzyme activity, inhibitor): 0.104 µM
CN1C/C(=C\c2ccccc2)C2=NN(C(N)=S)[C@H](c3ccccc3)[C@@H]2C1  IC50 (Adenosylmethionine-8-amino-7-oxononanoate aminotransferase (Mycobacterium tuberculosis, UniProt P9WQ81); inhibitor, biochemical): 189 ± 9.32 µM
CC[C@H](C)[C@H](NC(=O)[C@H](CO)NC(=O)[C@H](Cc1ccc(O)cc1)NC(=O)[C@H](CC(=O)O)NC(=O)[C@H](CO)NC(=O)[C@@H](NC(=O)[C@H](Cc1ccccc1)NC(=O)[C@@H](NC(=O)CNC(=O)[C@@H]1CCCN1C(=O)[C@H](C)NC(=O)[C@@H](N)Cc1ccc(O)cc1)[C@@H](C)O)[C@@H](C)CC)C(=O)N[C@@H](C)C(=O)N[C@@H](CCSC)C(=O)N[C@@H](CC(=O)O)C(=O)N[C@@H](CCCCN)C(=O)N[C@H](C(=O)N[C@@H](Cc1c[nH]cn1)C(=O)N[C@@H](CCC(N)=O)C(=O)N[C@@H](CCC(N)=O)C(=O)N[C@@H](CC(=O)O)C(=O)N[C@@H](Cc1ccccc1)C(=O)N[C@H](C(=O)N[C@@H](CC(N)=O)C(=O)N[C@@H](Cc1c[nH]c2ccccc12)C(=O)N[C@@H](CC(C)C)C(=O)N[C@@H](CC(C)C)C(=O)N[C@@H](C)C(=O)N[C@@H](CCC(N)=O)C(=O)N[C@@H](CCCCN)C(=O)NCC(=O)N[C@@H](CCCCN)C(=O)N[C@@H](CCCCN)C(=O)N[C@@H](CC(N)=O)C(=O)N[C@@H](CC(=O)O)C(=O)N[C@@H](Cc1c[nH]c2ccccc12)C(=O)N[C@@H](CCCCN)C(=O)N[C@@H](Cc1c[nH]cn1)C(=O)N[C@@H](CC(N)=O)C(=O)N[C@H](C(=O)N[C@H](C(=O)N[C@@H](CCC(N)=O)C(=O)O)[C@@H](C)O)[C@@H](C)CC)C(C)C)[C@@H](C)CC  IC50 (Gastric inhibitory polypeptide receptor (Mus musculus, UniProt Q0P543); 4 h, 4 °C): 0.0398 µM
C=CCC(NC(=O)C1CN(C(=O)C(CC(=C)C)NC(=O)C=C)CC1c1cccc(C(F)(F)F)c1)C(=O)NC (stereo not drawn)  IC50 (Replicase polyprotein 1ab main protease): > 100 µM
CC1C(=NOCc2cc(-c3ccc(Cl)cc3)no2)C(C)C(c2ccc(Cl)cc2)OC1c1ccc(Cl)cc1 (stereo not drawn)  IC50 (DNA gyrase subunit A/DNA gyrase subunit B (Mycobacterium tuberculosis, UniProt P9WG45+P9WG47)): 18.7 µM
N#Cc1c(N)nc(SCc2ncc[nH]2)c(C#N)c1-c1ccc(O)cc1  IC50 (ADORA2A (Homo sapiens, UniProt P29274); binding): 0.115 µM
C[n+]1ccc(C(=O)NCc2ccccc2)c(O)c1  IC50 (RNA-directed RNA polymerase catalytic subunit (PB1, Influenza A virus, UniProt P03430); polymerase activity, inhibitor, FLUPOL; Influenza A virus A/WSN/33 (H1N1)): 840 µM
CC(C)C[C@@H]1NC(=O)CN(C)C(=O)[C@H](Cc2c[nH]c3ccccc23)NC(=O)[C@H](CCC(=O)O)NC(=O)[C@H](Cc2ccccc2)N(C)C(=O)[C@H](Cc2ccccc2)NC(=O)CSC[C@@H](C(N)=O)NC(=O)[C@H](CCCCN)NC(=O)[C@H](C(C)C)NC(=O)[C@H](Cc2ccc(O)cc2)NC(=O)[C@H](Cc2ccc(O)cc2)NC(=O)[C@H](C(C)C)NC(=O)[C@H](Cc2ccccc2)N(C)C(=O)[C@H](CCCNC(=N)N)NC1=O  IC50 (AT-rich interactive domain-containing protein 1B (ARID1B, Homo sapiens, UniProt Q8NFD5); binding, TR-FRET; 1% DMSO, added: tracer 6-cy5 10 nM): 0.02 µM
COc1cc(C[S+]([O-])c2nc3cccnc3s2)oc(=O)c1 (stereo not drawn)  IC50 (Genome polyprotein protease; enzyme activity, inhibitor): > 50 µM

For quick reference, copied from above:
CC1C(=NOCc2cc(-c3ccc(Cl)cc3)no2)C(C)C(c2ccc(Cl)cc2)OC1c1ccc(Cl)cc1 (stereo not drawn)  IC50 (DNA gyrase subunit A/DNA gyrase subunit B (Mycobacterium tuberculosis, UniProt P9WG45+P9WG47)): 18.7 µM
N#Cc1c(N)nc(SCc2ncc[nH]2)c(C#N)c1-c1ccc(O)cc1  IC50 (ADORA2A (Homo sapiens, UniProt P29274); binding): 0.115 µM
C[n+]1ccc(C(=O)NCc2ccccc2)c(O)c1  IC50 (RNA-directed RNA polymerase catalytic subunit (PB1, Influenza A virus, UniProt P03430); polymerase activity, inhibitor, FLUPOL; Influenza A virus A/WSN/33 (H1N1)): 840 µM
CC(C)C[C@@H]1NC(=O)CN(C)C(=O)[C@H](Cc2c[nH]c3ccccc23)NC(=O)[C@H](CCC(=O)O)NC(=O)[C@H](Cc2ccccc2)N(C)C(=O)[C@H](Cc2ccccc2)NC(=O)CSC[C@@H](C(N)=O)NC(=O)[C@H](CCCCN)NC(=O)[C@H](C(C)C)NC(=O)[C@H](Cc2ccc(O)cc2)NC(=O)[C@H](Cc2ccc(O)cc2)NC(=O)[C@H](C(C)C)NC(=O)[C@H](Cc2ccccc2)N(C)C(=O)[C@H](CCCNC(=N)N)NC1=O  IC50 (AT-rich interactive domain-containing protein 1B (ARID1B, Homo sapiens, UniProt Q8NFD5); binding, TR-FRET; 1% DMSO, added: tracer 6-cy5 10 nM): 0.02 µM
